{"data": "Measured values gathered from unrelated publications", "note": "Every numbered part comes from another study and shows a few of its results, in no order. Substitutions count along the parent as printed."}
{"data": "Series 1", "target": "Phosphate system positive regulatory protein PHO4, full length, GST-tagged (PHO4, Saccharomyces cerevisiae, UniProt P07270, residues 1-312)", "method": "competition protein-binding microarray", "molecule type": "double-stranded DNA, one strand shown", "sample": "in vitro", "tested at": "2 µM", "notes": "whole 60-bp probe, lowest competitor level", "with": "Cbf1 competitor, 0.05 µM", "direction": "higher = stronger binding", "all sequences stand within": "… GTCTTGATTCGCTTGACGCTGCTG", "chain of UniProt P07270 (whole entry, looked up)": "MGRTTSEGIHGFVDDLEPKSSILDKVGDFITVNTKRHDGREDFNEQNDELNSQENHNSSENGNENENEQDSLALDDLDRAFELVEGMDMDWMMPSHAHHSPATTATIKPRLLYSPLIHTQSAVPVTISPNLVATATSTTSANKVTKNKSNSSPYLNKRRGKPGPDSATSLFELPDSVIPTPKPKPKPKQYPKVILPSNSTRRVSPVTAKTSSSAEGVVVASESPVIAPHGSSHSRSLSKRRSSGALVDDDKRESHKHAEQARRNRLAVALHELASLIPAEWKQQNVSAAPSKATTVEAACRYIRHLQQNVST"}
{"Sequence": "TTGCTAGATTCGACGACCGTGTCTGTGGTAATATTT", "fluorescence intensity [a.u.]": 6110}
{"Sequence": "AAAAGAGAAGATACCCACGTGCCGAAAAAATAAAGT", "fluorescence intensity [a.u.]": 16300}
{"Sequence": "AAGTTGAGGCTGAAGCAGGTGATGCTGGAACAAAGA", "fluorescence intensity [a.u.]": 4570}
{"Sequence": "ACCTTTTGAATATATCATGTGTTTGTTCTGCTATCT", "fluorescence intensity [a.u.]": 9760}
{"Sequence": "TACGCCTGTACTACCCACGTTGCCCCAGAACGTCCC", "fluorescence intensity [a.u.]": 16100}
{"Sequence": "GTCTTGTCTCATTGTCACCGAACTTTCCCCACTTCA", "fluorescence intensity [a.u.]": 4460}
{"Sequence": "AAATTACTAAGTTGTAATGTGGGTGACGCCGTATGA", "fluorescence intensity [a.u.]": 4640}
{"Sequence": "TAATAATATTTATTACACGTGATGGAATATATCCTG", "fluorescence intensity [a.u.]": 15400}
{"Sequence": "TAAAGGGACCGCTACCACATGGACAAGGAAATTTGC", "fluorescence intensity [a.u.]": 7670}
{"Sequence": "AGGAACGCTTAAAACATCGTGGAGTGAGTGTGGTAA", "fluorescence intensity [a.u.]": 8500}
{"Sequence": "TATATTTTTCAACTCCACGTGATGGCAAGCCCAACC", "fluorescence intensity [a.u.]": 14300}
{"Sequence": "ACCTTCTAATTTTGGAGCGTGACGAATGGCCTCAAT", "fluorescence intensity [a.u.]": 7550}
{"Sequence": "CGTCCTAGCGATTTCCACGTGTTTTCCATGAGGAAG", "fluorescence intensity [a.u.]": 17000}
{"Sequence": "TGCGCAACAACTTGCTGCGTGGGTGTATGTCTAGAA", "fluorescence intensity [a.u.]": 8390}
{"Sequence": "CTTCTGTAAATTTGAGGGGTGGGTGGACGCGCCCCG", "fluorescence intensity [a.u.]": 4660}
{"data": "Series 2", "target": "RING finger protein unkempt homolog, zinc fingers 1-6, GST-SBP tag (UNK, Homo sapiens, UniProt Q9C0B0, residues 30-357)", "method": "RNA Bind-n-Seq", "molecule type": "RNA", "sample": "in vitro", "tested at": "not given", "notes": "RNA with constant flanks, ends assumed", "baseline": "input RNA pool", "direction": "higher = stronger binding", "all sequences stand within": "GGGAGUUCUACAGUCCGACGAUC … CAACAGAGGAUUGAGCAUCA", "chain of UniProt Q9C0B0 (30-357, looked up)": "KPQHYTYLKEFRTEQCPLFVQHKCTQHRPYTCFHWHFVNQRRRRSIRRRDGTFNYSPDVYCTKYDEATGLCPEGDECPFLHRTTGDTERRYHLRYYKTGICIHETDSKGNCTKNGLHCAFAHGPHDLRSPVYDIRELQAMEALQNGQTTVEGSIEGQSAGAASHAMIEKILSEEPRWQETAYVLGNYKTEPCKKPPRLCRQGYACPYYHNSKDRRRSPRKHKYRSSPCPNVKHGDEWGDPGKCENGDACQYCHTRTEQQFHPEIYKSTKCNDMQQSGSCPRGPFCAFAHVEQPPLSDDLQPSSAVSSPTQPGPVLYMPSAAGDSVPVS"}
{"Sequence": "GAGUUUCUUGCUUUGACAUUCAGUGAAAAUGAGAAAAACGCUGCGUACUAUGCGUCCGCAACCGUGCAUGGAGCGGCCGCUUAUCUCCCAGACUUCUUGGACUACUUUGCUUUUAAUUUU", "bound/input enrichment [ratio]": 0.101}
{"Sequence": "CAUCUGCGUCACCACAUAUGUGCUGAACUUCCUCCUCCUCAUCAUCAAUUACAAACGACCCGUUUAUUUGAAUGAGGCCUGGAAGCGACAGCUGCAGCCUAAGGAAGACUGAUGGCCAGC", "bound/input enrichment [ratio]": 0.1}
{"Sequence": "UGCUUAAUGUAUUAGACAUUUUUAGCCCAUAAUUAAAACAUUGUUGCUUUUACACAGGUGCCGUUUGGUGCAUUUCAUUCAUAGUGUUUUAAAGUUAUUUAUAAAUUAACCAAUUACACU", "bound/input enrichment [ratio]": 8.35}
{"Sequence": "UUGUUUAUGGGAGAUUAUGUUGACAGAGGAUAUUAUUCAGUUGAAACAGUUACACUGCUUGCCGCUCUUAAGGUUCGUUACCGUGAACGCAUCACCAUUCUUCGAGGGAAUCAUGAGAGC", "bound/input enrichment [ratio]": 0.257}
{"Sequence": "UUUAACCAUGUGUCUACAAGAAUAAGUUUGUUUUGGAAAGUUGAGCUAUAGCUACAGCUCCCGCUAUCCAGCAGACUUUUCAUUAUGACUUACAUGGCAGGAGCUCUAAUUAUGCUUUAA", "bound/input enrichment [ratio]": 0.167}
{"Sequence": "AGAGAGAGAAAAACUAGUAAAGGCUGAAAGAAAAUUCAUUGAAGAUAGAGUUAAAAAAAUCACCGAGCUGAAAAAGAAAGUCUGUGGUGACUCAGAUAAAGGAUUUGUCGUUAUUAAUCA", "bound/input enrichment [ratio]": 2.44}
{"data": "Series 3", "target": "CCNF, cyclin fold, Cln2 fusion (human)", "method": "yeast growth competition, sequencing", "sample": "yeast", "notes": "strong parent motif", "baseline": "not given", "direction": "higher = stronger binding", "parent": "RBL1 docking peptide (human); GSAKRRLFGEDPP"}
{"Variant": "G9Q", "normalised enrichment score": 7.44}
{"Variant": "A3H", "normalised enrichment score": 2.64}
{"Variant": "L7N", "normalised enrichment score": -0.276}
{"Variant": "R6T", "normalised enrichment score": 2.7}
{"Variant": "P13M", "normalised enrichment score": 6.87}
{"Variant": "G9A", "normalised enrichment score": 8.26}
{"Variant": "D11H", "normalised enrichment score": 6.56}
{"Variant": "E10F", "normalised enrichment score": 7.47}
{"Variant": "E10S", "normalised enrichment score": 7.3}
{"data": "Other studies, line by line"}
{"Substance": "PhoQ, residues 284 288 289 292 302 303 SLANIV", "target": "PhoP, residues 12 14 15 18 19 NQCAL (Escherichia coli, UniProt P23836)", "assay": "Sort-seq, refers to: YFP reporter", "test system": "E. coli", "conditions": "PhoQ-PhoP variant library, with: 10 µM Mg2+", "scale": "baseline: high Mg2+ state, higher = stronger signaling", "quantity": "fold induction", "value": 11.7}
{"note": "Some of these lines once more (series 3):"}
{"Variant": "G9Q", "normalised enrichment score": 7.44}
{"Variant": "A3H", "normalised enrichment score": 2.64}
{"Variant": "L7N", "normalised enrichment score": -0.276}
{"Variant": "R6T", "normalised enrichment score": 2.7}
{"Variant": "P13M", "normalised enrichment score": 6.87}
